# Results pooled from the literature.
# Lines come from different studies, so protocols differ. ± marks the error that the study gave.
# Cell line: Jurkat
SMILES,assay,conditions,scale,endpoint,result
Cc1n[nH]c(C)c1CSc1ccc(O)cc1,cytotoxicity,,relative to: IC50 HEK293 over IC50 Jurkat,selectivity index,1.8
c1cc(N2CCCC2)ccc1-c1cc2ncc(OCC3CCNCC3)nc2cc1-c1ccc(N2CCCC2)cc1,"cell growth, XTT",7 days,,EC50,18.6 ± 0.6 µM
Cc1n[nH]c(C)c1CSc1ccccc1,cytotoxicity,,relative to: IC50 HEK293 over IC50 Jurkat,selectivity index,1.5
NC[C@@H](OCC(=O)N1CCC[C@H](C(=O)NCc2nc(-c3ccc(C(F)(F)F)cc3)cs2)C1)c1ccccc1,cytotoxicity,,,EC50,~10 µM
Cc1ccc(-c2cc3ccccc3c(N)n2)cc1,"annexin V-FITC/PI flow cytometry, refers to: annexin V+ PI-","2.5 µM, 72 h",,early apoptotic cells,10.5%
c1ccc(Oc2ccc(Nc3ccc4ncc(OCC5CCNCC5)nc4c3)cc2)cc1,"cell growth, XTT",7 days,,EC50,0.84 ± 0.12 µM
[Fe+2].c1cc[cH-]c1.c1cc[cH-]c1,"viability, Annexin V-/PI- cells, flow cytometry",48 h,,IC50,> 100 µM
c1cc(N2CCCCC2)ccc1Nc1cc2ncc(OCC3CCNCC3)nc2cc1-c1ccc(N2CCCCC2)cc1,"cell growth, XTT",7 days,,EC50,1.4 ± 0.19 µM
C=CC(=O)N1CCCN(C(=O)c2cc(Sc3cnc(NC(=O)C4CC4)s3)c(C)cc2OC)C[C@H]1C,IL-2 secretion,"washout after 2 h preincubation, added: TCR stimulation",,IC50,0.136 µM

# For quick reference, copied from above:
SMILES,assay,conditions,scale,endpoint,result
c1ccc(Oc2ccc(Nc3ccc4ncc(OCC5CCNCC5)nc4c3)cc2)cc1,"cell growth, XTT",7 days,,EC50,0.84 ± 0.12 µM
